Measured values pooled from the literature.
Numbered parts are unrelated; each lists some results of a single study.
Chain of UniProt P42685 (whole entry, looked up): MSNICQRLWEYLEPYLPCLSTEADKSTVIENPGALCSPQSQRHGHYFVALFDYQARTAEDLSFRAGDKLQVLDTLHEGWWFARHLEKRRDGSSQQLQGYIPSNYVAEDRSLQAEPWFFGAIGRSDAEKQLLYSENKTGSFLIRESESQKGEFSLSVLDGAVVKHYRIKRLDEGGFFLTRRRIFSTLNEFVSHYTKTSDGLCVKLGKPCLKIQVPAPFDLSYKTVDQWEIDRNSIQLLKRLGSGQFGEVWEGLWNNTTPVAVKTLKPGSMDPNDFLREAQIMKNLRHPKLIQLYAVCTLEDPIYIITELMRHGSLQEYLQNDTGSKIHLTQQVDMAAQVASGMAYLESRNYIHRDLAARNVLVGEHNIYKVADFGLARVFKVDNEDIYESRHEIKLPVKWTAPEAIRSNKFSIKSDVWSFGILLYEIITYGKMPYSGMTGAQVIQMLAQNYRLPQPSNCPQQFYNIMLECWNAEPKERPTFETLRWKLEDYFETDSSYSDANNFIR
Chain of UniProt Q04912 (whole entry, looked up): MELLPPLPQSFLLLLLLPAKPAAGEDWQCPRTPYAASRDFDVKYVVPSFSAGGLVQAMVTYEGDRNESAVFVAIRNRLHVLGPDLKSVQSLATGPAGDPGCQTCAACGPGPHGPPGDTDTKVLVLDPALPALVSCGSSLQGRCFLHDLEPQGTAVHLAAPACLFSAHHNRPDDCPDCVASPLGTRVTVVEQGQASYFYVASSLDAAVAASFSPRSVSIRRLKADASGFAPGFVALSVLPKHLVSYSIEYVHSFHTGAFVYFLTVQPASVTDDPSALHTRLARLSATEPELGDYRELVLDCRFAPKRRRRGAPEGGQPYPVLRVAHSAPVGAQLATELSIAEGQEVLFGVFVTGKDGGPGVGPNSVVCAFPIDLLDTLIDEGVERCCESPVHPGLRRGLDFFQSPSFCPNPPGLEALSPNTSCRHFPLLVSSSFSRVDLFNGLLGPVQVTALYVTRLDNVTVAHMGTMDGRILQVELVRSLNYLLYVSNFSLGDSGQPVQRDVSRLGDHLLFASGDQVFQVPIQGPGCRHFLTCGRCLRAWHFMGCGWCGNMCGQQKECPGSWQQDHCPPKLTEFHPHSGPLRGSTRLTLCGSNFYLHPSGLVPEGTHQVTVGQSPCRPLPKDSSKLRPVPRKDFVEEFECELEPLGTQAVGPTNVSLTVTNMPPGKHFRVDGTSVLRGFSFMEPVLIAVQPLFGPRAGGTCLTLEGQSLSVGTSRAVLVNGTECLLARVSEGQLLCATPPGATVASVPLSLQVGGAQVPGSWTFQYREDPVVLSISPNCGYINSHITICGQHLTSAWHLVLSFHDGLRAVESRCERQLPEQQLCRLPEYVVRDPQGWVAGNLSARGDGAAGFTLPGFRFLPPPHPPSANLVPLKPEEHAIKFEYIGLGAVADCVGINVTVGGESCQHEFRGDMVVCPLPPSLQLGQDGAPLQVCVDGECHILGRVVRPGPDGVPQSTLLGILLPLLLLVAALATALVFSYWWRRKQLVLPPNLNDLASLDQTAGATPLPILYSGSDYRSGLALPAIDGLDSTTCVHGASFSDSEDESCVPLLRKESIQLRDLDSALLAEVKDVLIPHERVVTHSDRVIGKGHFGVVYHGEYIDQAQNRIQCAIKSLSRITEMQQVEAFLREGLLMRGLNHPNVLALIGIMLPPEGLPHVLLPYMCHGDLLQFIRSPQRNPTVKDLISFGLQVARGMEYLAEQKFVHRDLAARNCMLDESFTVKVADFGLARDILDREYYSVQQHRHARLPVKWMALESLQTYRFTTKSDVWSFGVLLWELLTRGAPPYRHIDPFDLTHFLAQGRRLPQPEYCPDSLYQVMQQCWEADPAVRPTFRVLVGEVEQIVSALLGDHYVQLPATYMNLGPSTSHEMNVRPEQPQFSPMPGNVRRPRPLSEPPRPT
Chain of UniProt O75716 (whole entry, looked up): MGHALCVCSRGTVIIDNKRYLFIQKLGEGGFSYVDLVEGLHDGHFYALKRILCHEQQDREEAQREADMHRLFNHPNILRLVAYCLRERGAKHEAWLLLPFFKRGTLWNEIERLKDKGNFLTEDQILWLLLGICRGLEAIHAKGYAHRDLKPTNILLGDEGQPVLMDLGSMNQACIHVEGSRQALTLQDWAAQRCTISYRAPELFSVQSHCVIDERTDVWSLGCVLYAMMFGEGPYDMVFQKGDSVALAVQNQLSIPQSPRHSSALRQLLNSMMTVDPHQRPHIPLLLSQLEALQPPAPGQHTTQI
Chain of UniProt P30291 (whole entry, looked up): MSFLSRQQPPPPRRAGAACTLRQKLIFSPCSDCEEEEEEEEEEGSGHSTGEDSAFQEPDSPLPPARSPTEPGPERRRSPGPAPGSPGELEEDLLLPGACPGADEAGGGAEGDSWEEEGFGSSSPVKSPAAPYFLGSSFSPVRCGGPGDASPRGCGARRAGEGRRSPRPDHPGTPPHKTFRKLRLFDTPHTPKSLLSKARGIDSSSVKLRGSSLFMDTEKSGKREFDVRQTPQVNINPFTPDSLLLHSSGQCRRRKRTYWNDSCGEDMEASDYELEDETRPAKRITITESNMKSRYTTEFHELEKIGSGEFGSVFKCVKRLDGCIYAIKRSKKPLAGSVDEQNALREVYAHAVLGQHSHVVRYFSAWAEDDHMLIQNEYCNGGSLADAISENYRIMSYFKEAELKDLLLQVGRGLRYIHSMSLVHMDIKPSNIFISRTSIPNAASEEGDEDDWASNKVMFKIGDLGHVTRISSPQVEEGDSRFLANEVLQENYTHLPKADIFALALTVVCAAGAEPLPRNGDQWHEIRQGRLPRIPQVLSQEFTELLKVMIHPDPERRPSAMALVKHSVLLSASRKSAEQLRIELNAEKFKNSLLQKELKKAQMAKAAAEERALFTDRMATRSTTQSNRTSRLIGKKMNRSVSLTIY
Chain of UniProt P49137 (whole entry, looked up): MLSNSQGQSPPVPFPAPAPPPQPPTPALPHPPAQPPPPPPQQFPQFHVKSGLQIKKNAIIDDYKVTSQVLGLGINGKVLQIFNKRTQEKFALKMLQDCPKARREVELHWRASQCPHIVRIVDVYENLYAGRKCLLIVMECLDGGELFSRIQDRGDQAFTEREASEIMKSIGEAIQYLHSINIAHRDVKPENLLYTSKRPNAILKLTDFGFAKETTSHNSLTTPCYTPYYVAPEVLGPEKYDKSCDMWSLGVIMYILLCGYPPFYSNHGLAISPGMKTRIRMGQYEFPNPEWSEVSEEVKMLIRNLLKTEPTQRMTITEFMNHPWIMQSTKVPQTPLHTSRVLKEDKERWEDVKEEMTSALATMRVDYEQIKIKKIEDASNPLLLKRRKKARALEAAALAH
Chain of UniProt P29371 (whole entry, looked up): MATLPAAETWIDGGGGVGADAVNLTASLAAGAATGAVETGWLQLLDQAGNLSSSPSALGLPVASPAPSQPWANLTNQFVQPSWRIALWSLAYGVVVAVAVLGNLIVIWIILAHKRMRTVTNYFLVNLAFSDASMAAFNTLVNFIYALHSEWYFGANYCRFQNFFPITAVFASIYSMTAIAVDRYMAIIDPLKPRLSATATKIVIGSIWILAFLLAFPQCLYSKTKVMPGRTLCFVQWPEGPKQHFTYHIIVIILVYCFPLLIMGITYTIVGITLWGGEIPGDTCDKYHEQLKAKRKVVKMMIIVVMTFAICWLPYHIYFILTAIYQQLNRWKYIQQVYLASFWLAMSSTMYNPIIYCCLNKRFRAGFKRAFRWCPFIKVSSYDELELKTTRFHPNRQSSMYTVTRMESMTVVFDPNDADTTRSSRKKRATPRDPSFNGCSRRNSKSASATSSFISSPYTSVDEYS
Chain of UniProt P29320 (whole entry, looked up): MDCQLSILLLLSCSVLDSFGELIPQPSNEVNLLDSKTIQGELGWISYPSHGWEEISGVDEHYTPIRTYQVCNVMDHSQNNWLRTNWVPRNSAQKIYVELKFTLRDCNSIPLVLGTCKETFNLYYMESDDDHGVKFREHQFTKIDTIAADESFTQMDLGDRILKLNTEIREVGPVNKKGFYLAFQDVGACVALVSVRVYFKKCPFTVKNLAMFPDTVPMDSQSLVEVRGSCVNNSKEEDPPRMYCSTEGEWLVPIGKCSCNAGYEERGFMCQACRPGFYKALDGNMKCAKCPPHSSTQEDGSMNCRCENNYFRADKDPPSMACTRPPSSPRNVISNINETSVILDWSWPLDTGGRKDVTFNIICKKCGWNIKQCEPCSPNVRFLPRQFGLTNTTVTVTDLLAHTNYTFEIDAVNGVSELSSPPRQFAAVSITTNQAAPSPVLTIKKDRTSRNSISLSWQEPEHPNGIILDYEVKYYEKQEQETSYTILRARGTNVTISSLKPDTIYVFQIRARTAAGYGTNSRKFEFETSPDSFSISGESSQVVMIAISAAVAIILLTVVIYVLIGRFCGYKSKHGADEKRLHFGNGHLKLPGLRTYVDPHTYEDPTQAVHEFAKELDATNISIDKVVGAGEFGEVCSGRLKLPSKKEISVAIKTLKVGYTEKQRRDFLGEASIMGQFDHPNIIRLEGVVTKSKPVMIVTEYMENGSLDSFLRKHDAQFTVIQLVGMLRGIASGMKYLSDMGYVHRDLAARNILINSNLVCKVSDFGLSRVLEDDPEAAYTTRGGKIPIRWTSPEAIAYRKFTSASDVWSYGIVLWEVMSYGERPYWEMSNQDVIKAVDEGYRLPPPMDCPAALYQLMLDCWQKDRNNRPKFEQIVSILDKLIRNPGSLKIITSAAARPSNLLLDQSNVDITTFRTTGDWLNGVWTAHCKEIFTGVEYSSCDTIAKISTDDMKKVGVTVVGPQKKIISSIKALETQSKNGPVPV
Chain of UniProt Q9Y271 (whole entry, looked up): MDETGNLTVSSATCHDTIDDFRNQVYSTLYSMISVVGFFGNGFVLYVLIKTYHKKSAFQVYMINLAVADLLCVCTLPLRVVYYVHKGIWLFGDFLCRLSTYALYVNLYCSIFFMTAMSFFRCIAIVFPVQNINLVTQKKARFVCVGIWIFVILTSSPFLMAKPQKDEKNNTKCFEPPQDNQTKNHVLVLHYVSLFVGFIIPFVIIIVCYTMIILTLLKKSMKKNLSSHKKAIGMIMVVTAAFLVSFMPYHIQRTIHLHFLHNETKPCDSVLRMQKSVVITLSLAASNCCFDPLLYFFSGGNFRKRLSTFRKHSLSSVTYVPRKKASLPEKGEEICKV

Sample 1 — concentration: 1 µM
SMILES: O=C(NC[C@@H]1[C@H]2CN(C(=O)OCc3cc(C(F)(F)F)cc(C(F)(F)F)c3)C[C@@H]12)c1ccc2[nH]nnc2c1
target	effect on	method	remaining binding
Tyrosine-protein kinase FRK (FRK, Homo sapiens, UniProt P42685)	cell-free assay	competition with immobilised ligand	83%
Serine/threonine-protein kinase Chk2 (CHEK2, Homo sapiens, UniProt O96017)	cell-free assay	competition with immobilised ligand	86%
Cyclin-dependent kinase-like 2 (CDKL2, Homo sapiens, UniProt Q92772)	cell-free assay	competition with immobilised ligand	95%
Tyrosine-protein kinase ABL1, phosphorylated (ABL1, Homo sapiens, UniProt P00519, H396P)	cell-free assay	competition with immobilised ligand	91%
Serine/threonine-protein kinase MRCK gamma (CDC42BPG, Homo sapiens, UniProt Q6DT37)		competition binding	90%
Myosin light chain kinase (MYLK3, Homo sapiens, UniProt Q32MK0)	cell-free assay	competition with immobilised ligand	98%

Sample 2 — action: inhibitor; concentration: 10 µM; baseline: control
Target: Diamine acetyltransferase 1 (Homo sapiens, UniProt P21673)
Residues (P21673 1-171): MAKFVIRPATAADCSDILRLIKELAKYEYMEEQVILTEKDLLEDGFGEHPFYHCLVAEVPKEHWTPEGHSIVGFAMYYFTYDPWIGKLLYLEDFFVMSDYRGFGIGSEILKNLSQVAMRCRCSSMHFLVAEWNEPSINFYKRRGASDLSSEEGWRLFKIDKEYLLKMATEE
Compound	remaining activity
CCCCCC/C=C\CCCCCCCC(=O)O	103%
C[C@@H]1CC[C@]2(C(=O)O)CC[C@]3(C)C(=CC[C@@H]4[C@@]5(C)C[C@@H](O)[C@H](O)C(C)(C)[C@@H]5CC[C@]43C)[C@@H]2[C@]1(C)O	103%
OC[C@H]1O[C@@H](Oc2ccc(O)cc2)[C@H](O)[C@@H](O)[C@@H]1O	91.8%
COc1cc(C(C)=O)ccc1O	100%
O=C(O)CCC(=O)O	93.5%
Oc1cc(O)c2c(c1)O[C@H](c1ccc(O)c(O)c1)[C@H](O)[C@H]2c1c(O)cc(O)c2c1O[C@H](c1ccc(O)c(O)c1)[C@H](O)C2	88.1%

Sample 3 — effect on: enzyme activity; action: inhibitor; concentration: 0.5 µM; baseline: control
SMILES: O=c1c(-c2ccc(F)cc2)c(-c2ccncc2)[nH]n1-c1ccc(Cl)cc1
target	remaining activity [%]
Mitogen-activated protein kinase 3 (MAPK3, Homo sapiens, UniProt P27361)	103
Activin receptor type-1B (ACVR1B, Homo sapiens, UniProt P36896)	123
Macrophage-stimulating protein receptor (MST1R, Homo sapiens, UniProt Q04912)	95
Wee1-like protein kinase (WEE1, Homo sapiens, UniProt P30291)	81.6
Casein kinase I isoform gamma-2 (CSNK1G2, Homo sapiens, UniProt P78368)	93.8
Ribosomal protein S6 kinase alpha-2 (RPS6KA2, Homo sapiens, UniProt Q15349)	91.8
Ephrin type-A receptor 3 (EPHA3, Homo sapiens, UniProt P29320)	84.4
Tyrosine-protein kinase FRK (FRK, Homo sapiens, UniProt P42685)	78.5
Tyrosine-protein kinase Mer (MERTK, Homo sapiens, UniProt Q12866)	82.7
Serine/threonine-protein kinase Nek6 (NEK6, Homo sapiens, UniProt Q9HC98)	106
Glycogen synthase kinase-3 beta (GSK3B, Homo sapiens, UniProt P49841)	91.6
Fibroblast growth factor receptor 1 (FGFR1, Homo sapiens, UniProt P11362)	93.7
Serine/threonine-protein kinase TAO2 (TAOK2, Homo sapiens, UniProt Q9UL54)	101
Mitogen-activated protein kinase kinase kinase 5 (MAP3K5, Homo sapiens, UniProt Q99683)	115
Serine/threonine-protein kinase ULK3 (ULK3, Homo sapiens, UniProt Q6PHR2)	94.3
Casein kinase I isoform gamma-3 (CSNK1G3, Homo sapiens, UniProt Q9Y6M4)	102
Dual specificity mitogen-activated protein kinase kinase 2 (MAP2K2, Homo sapiens, UniProt P36507)	82.5
Serine/threonine-protein kinase Nek1 (NEK1, Homo sapiens, UniProt Q96PY6)	78.7
Mitogen-activated protein kinase kinase kinase 14 (MAP3K14, Homo sapiens, UniProt Q99558)	102
MAP kinase-activated protein kinase 2 (MAPKAPK2, Homo sapiens, UniProt P49137)	98.5
Angiopoietin-1 receptor (TEK, Homo sapiens, UniProt Q02763)	94.4
Tyrosine-protein kinase JAK3 (JAK3, Homo sapiens, UniProt P52333)	106
Tyrosine-protein kinase Lck (LCK, Homo sapiens, UniProt P06239)	101
Fibroblast growth factor receptor 3 (FGFR3, Homo sapiens, UniProt P22607)	88.1
Serine/threonine-protein kinase TBK1 (TBK1, Homo sapiens, UniProt Q9UHD2)	112

Sample 4 — effect on: cell-free assay; concentration: 1 µM
Compound: C[C@H]1CC[C@H](n2c3cnccc3c3cnc(Nc4ccc5c(n4)CCN(C(=O)CO)C5)nc32)CC1
target	remaining signal [%]
Hormonally up-regulated neu tumor-associated kinase (HUNK, Homo sapiens, UniProt P57058)	80
Epidermal growth factor receptor (EGFR, Homo sapiens, UniProt P00533, G719S)	91
Serine/threonine-protein kinase 16 (STK16, Homo sapiens, UniProt O75716)	2.5
Serine/threonine-protein kinase 32B (STK32B, Homo sapiens, UniProt Q9NY57)	100
RAC-alpha serine/threonine-protein kinase (AKT1, Homo sapiens, UniProt P31749)	100
Mitogen-activated protein kinase kinase kinase 12 (MAP3K12, Homo sapiens, UniProt Q12852)	100

Sample 5 — effect on: β-arrestin recruitment; action: agonist; method: PRESTO-Tango; concentration: 10 µM; baseline: untreated
SMILES: N=C(N)NC(=O)c1cnn(-c2cccc3ncccc23)c1C1CC1
target	fold over basal
Nociceptin receptor (OPRL1, Homo sapiens, UniProt P41146)	0.82
Neuromedin-K receptor (TACR3, Homo sapiens, UniProt P29371)	1.27 fold
G-protein coupled receptor 151 (GPR151, Homo sapiens, UniProt Q8TDV0)	1.43
B2 bradykinin receptor (BDKRB2, Homo sapiens, UniProt P30411)	1.11
C-X-C chemokine receptor type 2 (CXCR2, Homo sapiens, UniProt P25025)	1.12
Cysteinyl leukotriene receptor 1 (CYSLTR1, Homo sapiens, UniProt Q9Y271)	1.03

Sample 6 — cell line: mouse MPNST tumor cells; method: high-content immunofluorescence imaging; item: nuclear SOX9; concentration: 10 µM; time: 12 h; notes: mean of 2 replicates; baseline: DMSO control; direction: higher = more nuclear SOX9
Compound	nuclear SOX9 intensity
Clc1cccc(Cl)c1NC1=NCCN1	106 % of DMSO
OC(CN1CCC(Cc2ccc(F)cc2)CC1)c1ccc(Cl)cc1 (stereo not shown)	155 % of DMSO
C=CCNC(=O)c1cc([N+](=O)[O-])cc2c(=O)[nH]c(Nc3ccc(Cl)c(Cl)c3)nc12	90.7 % of DMSO
N=C(N)N1CCc2ccccc2C1	98.9 % of DMSO
O=NN(CCCl)C(=O)NCCCl	106 % of DMSO
NC(=O)c1ccc(-c2nc(-c3ccccn3)c(-c3ccc4c(c3)OCO4)[nH]2)cc1	107 % of DMSO

For quick reference, copied from above (sample 3):
target	remaining activity [%]
Serine/threonine-protein kinase ULK3 (ULK3, Homo sapiens, UniProt Q6PHR2)	94.3
Casein kinase I isoform gamma-3 (CSNK1G3, Homo sapiens, UniProt Q9Y6M4)	102
Dual specificity mitogen-activated protein kinase kinase 2 (MAP2K2, Homo sapiens, UniProt P36507)	82.5
Serine/threonine-protein kinase Nek1 (NEK1, Homo sapiens, UniProt Q96PY6)	78.7
Mitogen-activated protein kinase kinase kinase 14 (MAP3K14, Homo sapiens, UniProt Q99558)	102
